{"data": "Published values collected from several papers", "note": "Several values in a cell are separate wells, animals, samples, runs or records. ± marks the error that the study gave."}
{"SMILES": "N#C[C@@H]1CCCN1C(=O)CNC(=O)c1ccnc2ccc(OCCCN3CCN(C(=O)CCc4ccc5c(c4)CN4CCN6CC(=O)[O][68Ga-]([O]C(=O)C4)([O]5)[O]c4ccc(CCC(=O)N5CCN(CCCOc7ccc8nccc(C(=O)NCC(=O)N9CCC[C@H]9C#N)c8c7)CC5)cc4C6)CC3)cc12", "tested on": "HT1080 cells expressing human FAP", "conditions": "15 min, 37 °C", "measurement": "internalized fraction", "result": "74.5 ± 2.1%"}
{"SMILES": "C[C@@H]1CC[C@@H]([C@@](C)(O)Cn2ccnc2)[C@H](OCc2ccccc2)C1", "tested on": "HeLa", "test": "cell growth or viability, MTT", "conditions": "30 µM, 72 h", "measurement": "inhibition", "result": "70.8%"}
{"SMILES": "Cc1ncsc1-c1ccc(C(C)NC(=O)C2CC(O)CN2C(=O)C(NC(=O)CCCCCCCCCCN2CCCC(Nc3ncc(Cl)c(Nc4ccccc4S(=O)(=O)C(C)C)n3)C2)C(C)(C)C)cc1 (stereo not shown)", "tested on": "22Rv1", "test": "RNA-seq, item: SIK2 mRNA", "conditions": "concentration not given", "how to read": "relative to: DMSO", "measurement": "log2 fold change", "result": -1.27}
{"SMILES": "CN1CCCNC(=O)c2cccc(c2)C(=O)NCCCN(C)CCCNc2cccc3c2C(=O)c2cccc(c2C3=O)NCCC1", "tested on": "SAS", "test": "RNA-Seq, item: COQ5 mRNA", "conditions": "1 µM, 6 h", "how to read": "relative to: untreated cells", "measurement": "log2 fold change", "result": 1.1}
{"SMILES": "O=C(N1CCCC1)n1cc(-c2ccc(-c3ccccc3)cc2)nn1", "tested on": "mouse T cells", "test": "N-terminal labelling proteomics, item: Ndufv2 N-terminal peptide", "conditions": "0.001 µM, 6 h", "how to read": "relative to: DMSO", "measurement": "SILAC ratio per peptide", "result": "1.25 and 0.99"}
{"SMILES": "C[n+]1ccc(/C=N/NC(=O)c2cccc(C(=O)N/N=C/c3cc[n+](C)c4ccccc34)n2)c2ccccc21", "tested on": "22CTA telomeric G4-DNA antiparallel", "test": "FRET melting", "conditions": "1 µM, K10 buffer, DNA 0.2 µM, together with: ds26 10 µM", "measurement": "ΔTm", "result": "17.2 ± 1.2 °C"}
{"SMILES": "CCN(CC)CC(=O)Nc1cccc(-n2cc(-c3ccc4ccc(-c5cn(-c6cccc(NC(=O)CN(CC)CC)c6)nn5)cc4c3)nn2)c1", "tested on": "RCC4", "test": "PCR angiogenesis array, item: KDR", "conditions": "5 x IC50, 6 h, normoxia", "how to read": "relative to: untreated", "measurement": "fold regulation", "result": 1.18}
{"SMILES": "CC(=O)N[C@@H](CC(=O)O)C(=O)N[C@@H](CO)C(=O)N[C@@H](C)C(=O)N[C@@H](CC(=O)O)C(=O)COC(=O)c1c(C)cccc1C", "tested on": "THP-1 cells, LPS-primed", "test": "pyroptosis, LDH release", "conditions": "25 µM, LPS 1 µg/mL, 4 h, together with: nigericin 5 µM, 2 h", "measurement": "cell lysis", "result": "92.3% and 84.7%"}
{"SMILES": "CN1CCC(c2ccc(-c3ccc([C@H]4[C@@H](F)[C@@H](F)C[C@@H](F)[C@H]4F)cc3)cn2)CC1", "test": "liver microsome stability", "test system": "cynomolgus liver microsomes", "conditions": "1 µM", "measurement": "hepatic clearance", "result": "18 mL/min/kg"}
{"SMILES": "O=C(CCc1ccc(CNC(C(=O)OC2CCCC2)C2CCCCC2)cn1)NO (stereo not shown)", "tested on": "CD14+ monocytes", "test system": "human whole blood", "conditions": "concentration not given, 12 h", "measurement": "monocyte count", "result": "decreased"}
{"SMILES": "O=S(=O)(Nc1ccc(OC(F)(F)F)cc1)N1CCCC(C2c3ccc(F)cc3CCc3cc(F)ccc32)C1 (stereo not shown)", "tested on": "D425", "test": "CellTiter", "conditions": "concentration not given, 72 h", "measurement": "cell proliferation", "result": "decreased"}
{"SMILES": "CC1(C)OB(c2ccc(COC(=O)N(Cc3cccc(CN4CCCCC4)c3)[c-]3cccc3)cc2)OC1(C)C.[Fe+2].c1cc[cH-]c1", "tested on": "A2780", "test": "qPCR, item: CHOP", "conditions": "3 µM, 24 h, unit not given", "how to read": "relative to: untreated", "measurement": "mRNA level", "result": "284 ± 34.1"}
{"SMILES": "O=C(N/N=C/c1cc[n+](CC2CC2)c2ccccc12)c1cccc(C(=O)N/N=C/c2cc[n+](CC3CC3)c3ccccc23)c1", "tested on": "22CTA telomeric G4-DNA antiparallel", "test": "FRET melting", "conditions": "1 µM, K10 buffer, DNA 0.2 µM", "measurement": "ΔTm", "result": "11.9 ± 0.8 °C"}
{"SMILES": "CNS(=O)(=O)Nc1nccc(Cc2c(C)c3ccc(Oc4ncccc4F)cc3oc2=O)c1F", "tested on": "MX-1", "test": "cell viability, CellTiter-Glo", "conditions": "7 days", "measurement": "IC50", "result": "> 1000 nM"}
{"SMILES": "CC12CCCC(NS(=O)(=O)c3ccc(C(F)(F)F)cc3)(C1)C1CC(C)(C)C1CC2 (stereo not shown)", "tested on": "HT-29", "test": "cell growth or viability, CCK-8", "conditions": "50 µM", "measurement": "inhibition", "result": "70.7%"}
{"SMILES": "CCC(=CCc1c(O)cc2c(c1O)C(=O)CC(c1c(O)cccc1OC)O2)CC (stereo not shown)", "tested on": "HeLa", "test": "cell growth or viability, MTT", "conditions": "12.5 µM, 48 h", "measurement": "inhibition", "result": "15.8%"}
{"SMILES": "Cc1cc(Cl)cc(-c2ccnc3cc(CN4C(=O)C5C(C4=O)C5(C)C)sc23)c1C[C@@H]1CNCCO1 (stereo partly shown)", "tested on": "CHP-212 parental", "test": "annexin V/PI flow cytometry", "conditions": "0.3 µM, 48 h", "measurement": "early apoptotic cells", "result": "19.4% and 21.1% and 27%"}
{"SMILES": "CCC(=CCc1c(O)cc2c(c1O)C(=O)CC(c1ccccc1O)O2)CC (stereo not shown)", "tested on": "HeLa", "test": "cell growth or viability, MTT", "conditions": "1.875 µM, 48 h", "measurement": "inhibition", "result": "3.53%"}
{"SMILES": "COc1ccccc1CNC[C@](O)(COCc1ccccc1)[C@@H]1CC[C@@H](C)C[C@H]1OCc1ccccc1", "tested on": "HeLa", "test": "cell growth or viability, MTT", "conditions": "10 µM, 72 h", "measurement": "inhibition", "result": "98.1%"}
{"SMILES": "CC(C)S(=O)(=O)NC12CCCC(C)(CCC3C1CC3(C)C)C2 (stereo not shown)", "tested on": "HT-29", "test": "cell growth or viability, CCK-8", "conditions": "50 µM", "measurement": "inhibition", "result": "98.6%"}
{"SMILES": "CC1(C)C[C@@H](Nc2cccc(-c3sc(C(=O)O)c(OCC(=O)O)c3Cl)c2)CCN1S(=O)(=O)Cc1cccc(NC(=O)CN2CCC(c3ccc4c(c3)oc(=O)n4C3CCC(=O)NC3=O)CC2)c1 (stereo partly shown)", "tested on": "B16-F10", "test": "HTRF, item: phospho-STAT1 Tyr701", "conditions": "0.37 µM, together with: IFN-γ", "how to read": "relative to: min-max normalised", "measurement": "pSTAT1 level", "result": "66.2% and 68.9% and 59.9% and 61.8% and 65.1% and 67.8%"}
{"SMILES": "Cc1ccncc1.[Cl-].[Cl-].[Ru+2].c1cc(-c2ccc3cccnc3n2)nc(-c2ccc3cccnc3n2)c1.c1ccc2cc3nc4c5cccnc5c5ncccc5c4nc3cc2c1", "tested on": "SK-MEL-28", "test": "cell viability", "conditions": "light 633 nm, 100 J/cm2", "measurement": "EC50", "result": "521 ± 12 nM"}
